Experimental data from different studies.
Parts stem from different laboratories: compare values within a part only.

Set 1
Target: RNA binding protein fox-1 homolog 2, RRM domain, GST-SBP tag (RBFOX2, Homo sapiens, UniProt O43251-10, residues 100-194)
Method: RNA Bind-n-Seq
Molecule type: RNA
Matrix: in vitro
Tested at: 365 nM
Notes: natural RNA segment, single round, ends assumed
Relative to: no-protein control
Reading: higher = stronger binding
Measurement: RBNS enrichment (R)
Shared flanks, not repeated: GGGAGUUCUACAGUCCGACGAUC … UGGAAUUCUCGGGUGCCAA
Residues (chain): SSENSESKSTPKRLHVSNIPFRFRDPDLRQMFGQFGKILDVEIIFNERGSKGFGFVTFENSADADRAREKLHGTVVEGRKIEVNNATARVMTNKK
CCUGCCUGUUGUGAUAACCAGCUCUUAGGUAUUUCCUUUCCCUGAGGCUUUCCAUUUAACAUGGAAUCCUUCUCCCCAAGAAGGCUUCUUCCUUGUUUUAGAGGAAGGUA: 0.253
AAAUUCCAAGGAUUAGGAAAAGUGGAAUGUUUUUGCCCCUCAAAGUCCACCCCCUAGACAGCAAUGCCCUCUGGACUUGAUCCUGAGCCUAAUAAACCUGUGUGCACUCC: 0.577
UAUUUUUGUUUUUAAUGCUUUGAUAUUUCAAUGUUAGCCUCAAUUUCUGAACACCAUAGGUAGAAUGUAAAGCUUGUCUGAUCGUUCAAAGCAUGAAAUGGAUACUUAUA: 1.65
AGUGCUGUUACUUGGCCACUAAGAUGUGUAAAAUGGACUGAAAUGCUCCAUCAUGAAGACUUGCUUCCCCACCAAAGAUGUCCUGGGAUUCUGCUGGAUCUCAAAGAUGU: 0.628
UAUAAUCCCAGCACUUUGGAAGGCCAAGGCAGGAGGAUCACUUGAGGCCAGGAGUUCGAGACCAGCCUGAGCAACAUGGUGAGACCCUGUCUCUACAAAAAAAAAAUUUA: 0.588

Set 2
Target: Centromere-binding protein 1, full length, His-tagged (CBF1, Saccharomyces cerevisiae, UniProt P17106, residues 1-351)
UniProt P17106, sequence (whole entry, looked up): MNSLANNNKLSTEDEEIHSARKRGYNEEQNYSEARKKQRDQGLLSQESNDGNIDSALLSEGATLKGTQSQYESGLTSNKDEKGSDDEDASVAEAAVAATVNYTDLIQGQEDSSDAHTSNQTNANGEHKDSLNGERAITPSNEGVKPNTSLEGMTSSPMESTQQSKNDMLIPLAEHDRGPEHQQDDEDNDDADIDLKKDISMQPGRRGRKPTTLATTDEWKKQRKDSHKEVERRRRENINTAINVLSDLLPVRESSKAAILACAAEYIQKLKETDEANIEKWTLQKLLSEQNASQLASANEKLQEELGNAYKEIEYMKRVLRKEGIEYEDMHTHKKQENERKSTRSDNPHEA
Method: competition protein-binding microarray
Molecule type: double-stranded DNA, one strand shown
Matrix: in vitro
Tested at: 2 µM
Notes: whole 60-bp probe, lowest competitor level
Together with: Pho4 competitor, 0.05 µM
Reading: higher = stronger binding
Measurement: fluorescence intensity
Shared flanks, not repeated: … GTCTTGATTCGCTTGACGCTGCTG
TGCGCAACAACTTGTAGTGTGGGTGTATGTCTAGAA: 76.7 a.u.
AAAGCGGTAATTTTTCACGTGACGTCAAATATCTAT: 7590 a.u.
CTTCTGTAAATTTGCACCGTGGGTGGACGCGCCCCG: 72.8 a.u.
TTATCAGTTCTACAGCACGCAGAGAAAAGTAAACGA: 75.6 a.u.
AATCGTAGGATAGGTTACATGATAATTGCAATAGAT: 82.8 a.u.

Set 3
Target: Histone acetyltransferase KAT6A, winged helix 1, GST fusion (KAT6A, Homo sapiens, UniProt Q92794, residues 1-85)
Method: protein binding microarray
Molecule type: double-stranded DNA, one strand shown
Matrix: in vitro
Tested at: not given
Notes: 8-mer, flanks averaged, mean of 2 arrays, mostly near background
Relative to: not given
Reading: higher = stronger binding
Measurement: E-score
Target sequence (chain): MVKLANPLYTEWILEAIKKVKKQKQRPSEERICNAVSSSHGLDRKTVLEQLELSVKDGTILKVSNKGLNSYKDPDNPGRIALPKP
CTGGAACA: -0.225
TACGTGGA: 0.0587
CCGGCGCA: 0.45
CGCTATAG: 0.216
AATGTGGT: -0.179

Mixed results
PhoQ, residues 284 288 289 292 302 303 WSHMKI  fold induction (PhoP, residues 12 14 15 18 19 TPWLV (Escherichia coli, UniProt P23836); Sort-seq, measured: YFP reporter; E. coli; PhoQ-PhoP variant library, together with: 10 µM Mg2+; relative to: high Mg2+ state, higher = stronger signaling): 4.59

For quick reference, copied from above (set 2):
AAAGCGGTAATTTTTCACGTGACGTCAAATATCTAT: 7590 a.u.
